Measured values collected from several papers.
A part holds a random share of what one study measured.

Series 1 — method: protein-binding microarray; molecule type: double-stranded DNA, one strand shown; sample: in vitro; tested at: 250 nM; setting: 60-bp whole probe; together with: salmon DNA 0.4 mg/ml; reference: random background probes; reading: higher = stronger binding; shared flanks, not repeated: GCCTAGCAC … GTCTTGATTCGCTTGACGCTGCTG
Target: Interferon regulatory factor 5, full length, phosphomimetic (IRF5, Homo sapiens, UniProt Q13568-2, residues 1-514, K96S/S451D/S453D/S456D/S462D)
Sequence | log fluorescence [z-score]
TTAGGTTTCGGGTATCGGATAGTGCTA | 9.01
GTATTTGTCCCTATTTAAGAGTGCTAG | 0.935
TACGGTTTCGGTTTCGGGACGTGCTAG | 10.4
TTAGGTTTCGGTTATCGGTTAGTGCTA | 11
GAGGGTATCGACTTTCGGGACGTGCTA | 5.85
GACGAACTGGGGTTTCGAAACGTGCTA | 2.09
TTAGATATCAGTCTCGAGTAGTGCTAG | 1.12
TTAGGTATCCTTCGCCTTTAGTGCTAG | 0.369
AACGATCTCAGTATCGAGACGTGCTAG | 1.91
TTAGGTTTCGGGTATCGATTAGTGCTA | 9.77
GACGGACTGGGACAGGGGACGTGCTAG | -0.377
TCATAACTTATTCTCTAACTGTGCTAG | 0.86
GACGGTTTCGGGACTGGAGACGTGCTA | 4.74

Series 2 — method: RNA Bind-n-Seq; molecule type: RNA; sample: in vitro; tested at: 200 nM; setting: whole 134-nt RNA, ends assumed; together with: 150 mM LiCl; reference: input library; reading: higher = stronger binding; library: 7-deaza-guanosine replaces G
Target: Fragile X messenger ribonucleoprotein 1, C-terminal low-complexity region (Fmr1, Mus musculus, UniProt P35922)
Shared flanks, not repeated: GGGAGUUCUACAGUCCGACGAUC … UGGAAUUCUCGGGUGUCAAGG
Sequence | log2 enrichment
UGGCCCUGGUGGCAUGCGGGGAGGAAGAGGUGGCCUCAUGGAUCGUGGUGGUCCCGGUGGAAUGUUCAGAGGUGGCUGUGGUGGAGACAG | 0.136
CCUCAAGUCCUGUGCUACACAUCGUAUGUACCGAAUCGGGGUUGGUUGGUUGGAAAGUAUUAUGUUACGCCGUUCGGAUCUGCACUUCCA | -0.795
CUCAAGUCCUGUGCUACACAUCGUAUGUACCGAAUCGGUUUGGUUUGGUUUGGAAAGUAUUAUGUUACGCCGUUCGGAUCUGCACUUCCA | -0.405
CACAGACAACACGCACCCACACAGACACAGAGGGAAGGGGUUGGGAUGGGGACAGGGUGCACAGCAGGGCGGGGUAGGACCCCAAACCCU | -1.26
UCCUGUGCUACACAUCGUAUGUACCGAAUCGGGUUUUUUUGGGAAAGGGAAAAAAAGGGAAAGUAUUAUGUUACGCCGUUCGGAUCUGCA | -1.03

Series 3 — method: aptamer microarray, sandwich; molecule type: DNA with 2'F-ANA; sample: in vitro; tested at: 200 nM; together with: Cy3 exosite-II aptamer, 400 nM; reading: higher = stronger binding; sequence: GGTTGGTGTGGTTGG
Target: Prothrombin, mature alpha-thrombin (F2, Homo sapiens, UniProt P00734)
Setting: whole 15-mer aptamer, many near background
Modification | mean fluorescence intensity [a.u.]
2'F-ANA at 1 2 5 6 9 10 12 13 | 51
2'F-ANA at 5 6 9 10 11 15 | 47.8
2'F-ANA at 1 2 3 6 7 8 9 11 12 13 | 255
2'F-ANA at 2 6 7 9 10 12 14 15 | 75.2
2'F-ANA at 1 3 4 7 8 9 | 255
2'F-ANA at 2 3 4 9 11 13 | 406
2'F-ANA at 3 4 5 6 11 13 14 15 | 48.1
2'F-ANA at 1 5 6 9 13 15 | 48.2
2'F-ANA at 7 10 14 15 | 125
2'F-ANA at 1 2 3 4 7 8 9 11 12 13 14 | 70.9
2'F-ANA at 1 2 3 7 9 12 14 | 82.6
2'F-ANA at 2 4 7 11 12 14 15 | 172
2'F-ANA at 1 4 6 7 10 12 13 15 | 53

Other studies, line by line
Molecule | target | test | system | conditions | scale | endpoint | result
PhoQ, residues 284 288 289 292 302 303 TTSMTC | PhoP, residues 12 14 15 18 19 NMSSL (Escherichia coli, UniProt P23836) | Sort-seq, item: YFP reporter | E. coli | PhoQ-PhoP variant library, together with: 10 µM Mg2+ | reference: high Mg2+ state, higher = stronger signaling | fold induction | 9.22

Repeated from above (series 1):
Sequence | log fluorescence [z-score]
AACGATCTCAGTATCGAGACGTGCTAG | 1.91
GACGGTTTCGGGACTGGAGACGTGCTA | 4.74
GACGAACTGGGGTTTCGAAACGTGCTA | 2.09
GACGGACTGGGACAGGGGACGTGCTAG | -0.377
